Measurements collected from several papers.
Protocols differ between the studies behind these lines. ± gives the spread as reported.

With `CC(C)[C@H](NC(=O)[C@H](CCCNC(=N)N)NC(=O)[C@@H]1CCCN1C(=O)[C@@H](NC(=O)[C@H](C)NC(=O)[C@H](Cc1ccc(O)cc1)NC(=O)[C@H](CCC(N)=O)NC(=O)[C@H](CCCCN)NC(=O)[C@H](CCCNC(=N)N)NC(=O)[C@@H]1CCCN1C(=O)[C@H](CCC(=O)O)NC(=O)[C@@H](NC(=O)[C@H](C)N)[C@@H](C)O)[C@@H](C)O)C(=O)N[C@@H](Cc1ccccc1)C(=O)N[C@@H](Cc1c[nH]c2ccccc12)C(=O)N[C@H](C(=O)N[C@@H](CC(=O)O)C(=O)N[C@@H](C)C(=O)N1CCC[C@H]1C(=O)NCC(=O)NCCOCCOCCOCCOCCOCCOCCOCCOCCOCCOCCOCCOCCC(=O)N[C@@H](CS)C(N)=O)[C@@H](C)O` the selectivity ratio was 3.2 ± 1.6 (HCC827; phage binding; baseline: targeting over control phage).
For `O=C(C[Se]C(=O)c1ccccc1)Nc1cccc(C(F)(F)F)c1`, “mean growth percent” read -56.5% (NCI60 breast subpanel; cell growth; 10 µM, 48 h, one-dose).
`COc1ccccc1-c1ccncc1C(=O)Nc1nnc(OCc2ccc(Cl)cc2)s1` has a colony survival of 75.7% (RPE-1 BRCA1 WT parental; 8 µM, average of 2 runs; baseline: untreated).
For `O=C(c1cc(Cc2n[nH]c(=O)c3ccccc23)ccc1F)N1CC(CNC2CC2)C1`, the IC90 was 8.99 µM (human bone marrow progenitor cells; colony formation; 14 days).
The CC50 of `O=C(C[Se]C(=O)c1ccccc1Nc1cccc(C(F)(F)F)c1)Nc1cccc(C(F)(F)F)c1` is reported as 11.1 µM (NCI60 breast subpanel; NCI60 five-dose screen).
`CC[C@H](C)[C@H](NC(=O)[C@H](C)NC(=O)CNC(=O)[C@H](Cc1ccccc1)NC(=O)[C@H](CC(N)=O)NC(=O)[C@H](CC(N)=O)NC(=O)[C@H](CO)NC(=O)[C@H](CO)NC(=O)[C@H](Cc1c[nH]cn1)NC(=O)[C@@H](NC(=O)[C@H](CC(C)C)NC(=O)[C@H](Cc1ccccc1)NC(=O)[C@H](CC(N)=O)NC(=O)[C@H](C)NC(=O)[C@H](CC(C)C)NC(=O)[C@H](CCCNC(=N)N)NC(=O)[C@H](CCC(N)=O)NC(=O)[C@@H](NC(=O)[C@H](C)NC(=O)[C@@H]1CSSC[C@H](NC(=O)[C@@H](N)CCCCN)C(=O)N[C@@H](CC(N)=O)C(=O)N[C@@H]([C@@H](C)O)C(=O)N[C@@H](C)C(=O)N[C@@H]([C@@H](C)O)C(=O)N1)[C@@H](C)O)C(C)C)C(=O)N[C@@H](CC(C)C)C(=O)N[C@@H](CO)C(=O)N[C@@H](CO)C(=O)N[C@H](C(=O)N[C@@H](CC(N)=O)C(=O)N[C@H](C(=O)NCC(=O)N[C@@H](CO)C(=O)N[C@@H](CC(N)=O)C(=O)N[C@H](C(=O)N[C@@H](Cc1ccc(O)cc1)C(N)=O)[C@@H](C)O)C(C)C)[C@@H](C)O`: “Pearson colocalization coefficient” < 0.3 (RIN-m5F; colocalization microscopy, refers to: mitochondrial marker; 10 µM, 24 h).
`O=C(O)c1ccc(-c2nc(-c3ccccc3Cl)c3sccn23)cc1` has a CD61-positive cells of > 90% (K562; flow cytometry; concentration not given, 48 h).
With `CC(C)(C)C(=O)OCOP(=O)(OCOC(=O)C(C)(C)C)C1CCCN(O)C1=O` (centres unmarked) the log TGI was -4.37 log M (SW-620).

Some of these lines once more:
For `O=C(C[Se]C(=O)c1ccccc1)Nc1cccc(C(F)(F)F)c1`, “mean growth percent” read -56.5% (NCI60 breast subpanel; cell growth; 10 µM, 48 h, one-dose).
